Measurements from different studies.
Protocols differ between the studies behind these lines. Values joined by “and” are separate records of one study, mostly repeats; a detail may differ. ± gives the spread as reported.
UniProt P20813, sequence (whole entry, looked up): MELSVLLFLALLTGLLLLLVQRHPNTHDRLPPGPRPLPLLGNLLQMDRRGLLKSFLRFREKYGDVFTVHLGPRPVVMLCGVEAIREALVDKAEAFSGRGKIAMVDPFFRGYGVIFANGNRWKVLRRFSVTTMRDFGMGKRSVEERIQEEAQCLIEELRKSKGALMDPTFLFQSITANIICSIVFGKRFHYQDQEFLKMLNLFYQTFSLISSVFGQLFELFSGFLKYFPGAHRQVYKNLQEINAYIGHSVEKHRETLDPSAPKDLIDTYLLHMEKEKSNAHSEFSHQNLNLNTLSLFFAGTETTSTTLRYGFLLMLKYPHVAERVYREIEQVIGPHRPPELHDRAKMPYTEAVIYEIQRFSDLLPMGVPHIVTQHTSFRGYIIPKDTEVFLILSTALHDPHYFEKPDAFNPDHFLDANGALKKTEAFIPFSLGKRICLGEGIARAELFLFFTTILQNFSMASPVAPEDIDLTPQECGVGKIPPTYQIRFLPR
UniProt Q96SB4, sequence (whole entry, looked up): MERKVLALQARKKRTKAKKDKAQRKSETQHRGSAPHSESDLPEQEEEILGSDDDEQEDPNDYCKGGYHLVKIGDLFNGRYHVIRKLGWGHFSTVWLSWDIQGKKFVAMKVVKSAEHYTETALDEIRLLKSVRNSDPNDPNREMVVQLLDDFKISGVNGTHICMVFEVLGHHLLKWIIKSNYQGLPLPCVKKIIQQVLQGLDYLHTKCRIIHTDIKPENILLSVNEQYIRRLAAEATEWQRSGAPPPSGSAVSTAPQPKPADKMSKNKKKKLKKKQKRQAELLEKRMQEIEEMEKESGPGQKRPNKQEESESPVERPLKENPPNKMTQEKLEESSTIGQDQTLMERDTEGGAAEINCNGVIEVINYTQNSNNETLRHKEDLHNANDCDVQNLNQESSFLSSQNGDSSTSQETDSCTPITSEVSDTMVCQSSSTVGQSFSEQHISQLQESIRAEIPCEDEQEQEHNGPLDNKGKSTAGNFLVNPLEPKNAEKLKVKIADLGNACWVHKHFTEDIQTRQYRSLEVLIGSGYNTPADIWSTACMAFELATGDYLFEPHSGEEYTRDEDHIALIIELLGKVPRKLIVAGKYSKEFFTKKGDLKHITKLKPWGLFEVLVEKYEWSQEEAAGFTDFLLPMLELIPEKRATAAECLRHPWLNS
UniProt P10632, sequence (whole entry, looked up): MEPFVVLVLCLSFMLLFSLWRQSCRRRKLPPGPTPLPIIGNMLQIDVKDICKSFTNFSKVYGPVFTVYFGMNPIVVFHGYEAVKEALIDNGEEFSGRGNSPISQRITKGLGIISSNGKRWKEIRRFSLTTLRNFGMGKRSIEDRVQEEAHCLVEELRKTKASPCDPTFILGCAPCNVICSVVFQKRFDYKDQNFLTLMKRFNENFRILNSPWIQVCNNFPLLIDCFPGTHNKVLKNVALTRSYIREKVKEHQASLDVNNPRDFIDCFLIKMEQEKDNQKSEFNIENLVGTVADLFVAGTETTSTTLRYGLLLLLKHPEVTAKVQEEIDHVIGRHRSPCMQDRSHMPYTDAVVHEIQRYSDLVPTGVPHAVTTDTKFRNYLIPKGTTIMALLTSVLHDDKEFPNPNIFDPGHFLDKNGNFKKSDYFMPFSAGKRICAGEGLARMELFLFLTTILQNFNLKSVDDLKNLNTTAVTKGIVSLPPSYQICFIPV
UniProt O75469, sequence (whole entry, looked up): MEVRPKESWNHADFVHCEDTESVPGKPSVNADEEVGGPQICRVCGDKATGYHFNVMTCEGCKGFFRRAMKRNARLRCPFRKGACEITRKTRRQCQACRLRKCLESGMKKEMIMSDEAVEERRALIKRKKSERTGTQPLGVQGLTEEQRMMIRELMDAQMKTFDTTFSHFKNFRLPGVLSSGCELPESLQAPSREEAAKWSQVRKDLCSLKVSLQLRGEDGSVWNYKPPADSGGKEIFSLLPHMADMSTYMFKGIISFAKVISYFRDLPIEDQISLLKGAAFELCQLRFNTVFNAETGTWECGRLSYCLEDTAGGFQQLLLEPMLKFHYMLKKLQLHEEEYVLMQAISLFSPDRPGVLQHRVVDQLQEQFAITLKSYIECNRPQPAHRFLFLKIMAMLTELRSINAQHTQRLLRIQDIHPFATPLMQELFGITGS

O=C1C2CC3CC1CC(C(=O)N1CCN(c4ccc([N+](=O)[O-])c5ncccc45)CC1)(C3)C2
revertant colony count (Escherichia coli; Ames test; WP2 uvrA pKM101; 0.05 µg/well, with S9 activation): 27 colonies/well

CC(C)OCCOCc1ccc(OCC(O)CN(N=O)C(C)C)cc1 (stereo not shown)
revertant fold increase (Salmonella typhimurium; Ames test; TA1537; 15.8 µg/plate, 30 % rat S9; relative to: solvent control): 1.3 fold

Cc1ncsc1-c1ccc(C(C)NC(=O)C2CC(O)CN2C(=O)C(NC(=O)CCCCCCCCCCN2CCCC(Nc3ncc(Cl)c(Nc4ccccc4S(=O)(=O)C(C)C)n3)C2)C(C)(C)C)cc1 (stereo not shown)
log2 fold change (22Rv1; RNA-seq, measured: YAE1 mRNA; concentration not given; relative to: DMSO): -1.01

N#C[C@@H]1CC(F)(F)CN1C(=O)CNC(=O)c1ccnc2c(NC(=O)[C@H](CCCCNC(=O)CCOCCOCCOCCOCCOCCOCCNC(=O)CN3CCN(CC(=O)[O-])CCN(CC(=O)[O-])CCN(CC(=O)[O-])CC3)NC(=O)CCCc3ccc(I)cc3)cccc12.[177Lu+3]
tracer uptake (U-87 MG tumour model; host not given, blood; 4 h, tumour-bearing): 6.43 %ID/g

N=C(N)NCCC[C@@H]1NC(=O)[C@H](CCCNC(=N)N)NC(=O)[C@@H](CCCNC(=N)N)NC(=O)[C@@H](CCCNC(=N)N)NC(=O)[C@@H](C(c2ccccc2)c2ccccc2)NC(=O)[C@H](Cc2c[nH]c3ccccc23)NC(=O)[C@@H](C(c2ccccc2)c2ccccc2)NC1=O
viability (HEKa; cell growth or viability, MTS; 200 µg/mL, 24 h): 64 to 69%

C=CC(=O)Nc1cccc(Cn2ncc3cnc(Nc4cnn(CCOC)c4)nc32)c1
percent of control (TAOK1 human; binding, KINOMEscan; 100 nM; lower = stronger binding): 27%

CC[C@H](C)[C@H](NC(=O)C[C@H](NC(=O)CN1CCN2CCN(CC1)CC(=O)[O][Al]([18F])[O]C(=O)C2)C(=O)O)C(=O)N[C@H]1CCc2cccc3c2N(C1=O)[C@H](C(=O)NCc1cn[nH]n1)C3
tracer uptake (MC-38 tumour model; host not given, spleen; 30 min, tumour-bearing): 0.4 %ID/g

CNS(=O)(=O)Nc1nccc(Cc2c(C)c3ccc(Oc4ncccc4F)cc3oc2=O)c1F
IC50 (UACC-2087; cell viability, CellTiter-Glo; 7 days): > 1 µM

CC[C@H](C)[C@H](NC(=O)[C@H](Cc1ccccc1)NC(=O)[C@H](CCC(=O)O)NC(=O)[C@H](CCCCN)NC(=O)[C@H](C)NC(=O)[C@H](C)NC(=O)[C@H](CCC(N)=O)NC(=O)CNC(=O)[C@H](CCC(=O)O)NC(=O)[C@H](CC(C)C)NC(=O)[C@H](Cc1ccc(O)cc1)NC(=O)[C@H](CO)NC(=O)[C@H](CO)NC(=O)[C@@H](NC(=O)[C@H](CC(=O)O)NC(=O)[C@H](CO)NC(=O)[C@@H](NC(=O)[C@H](Cc1ccccc1)NC(=O)[C@@H](NC(=O)CNC(=O)[C@H](CCC(=O)O)NC(=O)[C@H](C)NC(=O)[C@@H](N)Cc1c[nH]cn1)[C@@H](C)O)[C@@H](C)O)C(C)C)C(=O)N[C@@H](C)C(=O)N[C@@H](Cc1c[nH]c2ccccc12)C(=O)N[C@@H](CC(C)C)C(=O)N[C@H](C(=O)N[C@@H](CCCCN)C(=O)NCC(=O)N[C@@H](CCCN=C(N)N)C(=O)NCC(=O)O)C(C)C
remaining peptide (DPP-4 (recombinant); substrate, LC-MS; 500 µM, 1 h): ~79%

COCC1CN(C2CCN(c3cc(OC)c(Nc4ncc(Br)c(Nc5ccc6c(c5P(C)(C)=O)OCCO6)n4)cc3C)CC2)C1
adverse events (first-in-human trial; human; oral, 30 mg once daily; any treatment-related): 100%

CCCC[C@H](NC(=O)COCCOCCNC(=O)CN1CCN(CC(=O)O)CCN(CC(=O)O)CC1)C(=O)N[C@H]1CC(=O)NCCCC[C@@H](C(N)=O)NC(=O)[C@H](Cc2c[nH]c3ccccc23)NC(=O)[C@H](CCCNC(=N)N)NC(=O)[C@@H](Cc2ccccc2)NC(=O)[C@H](Cc2c[nH]cn2)NC1=O [technetium-99m labelled]
tissue uptake (C57 mouse, blood; intravenous, 0.037 MBq, 4 h): 0.05 ± 0.04 %ID/g

COC(=O)Nc1nc2cc(C(O)c3ccc(F)cc3)ccc2[nH]1 (stereo not shown)
revertants (Salmonella typhimurium; Ames preincubation test; TA1537; 437.5 µg/plate, without S9): 19.7 revertants/plate

CN1CCCNC(=O)c2cccc(c2)C(=O)NCCCN(C)CCCNc2cccc3c2C(=O)c2cccc(c2C3=O)NCCC1
log2 fold change (SAS; RNA-Seq, measured: PDS5B mRNA; 1 µM, 6 h; relative to: untreated cells): -1.87

C=C(NC(=O)c1csc(-c2nc3c(cc2O)-c2nc(cs2)C(=O)NC(C(C)O)C(=O)NC(=C(C)OC)c2nc(cs2)C(=O)NC2c4nc(cs4)C(=O)NC(COC(=O)c4c5c6c(cccc6n4O)COC(=O)C(OC4CC(C)(O)C(N(C)C)C(C)O4)C2OC5)c2nc-3cs2)n1)C(N)=O (stereo not shown)
Cmax (Sprague-Dawley rat, both sexes, plasma; intravenous infusion, 2 mg/kg single dose): 2600 ± 625 ng/mL

O=S(=O)(NCc1ccncc1)c1ccc(C2CCCCC2)cc1
efflux ratio (MDCK; Caco-2; 5 µM, 90 min, pH 7.4): 0.75

Cc1nn(-c2cccc(N)c2)c(=O)c2cnc(Nc3ccc(N4CCNCC4)cc3)nc12
IC50 (SRPK1 (Homo sapiens, UniProt Q96SB4); enzyme activity, inhibitor): > 10 µM

N#C[C@@H]1CC(F)(F)CN1C(=O)CNC(=O)c1ccnc2c(NC(=O)CCOCCOCCOCCOCCOCCOCCNC(=O)[C@H](CCCCNC(=O)CN3CCN(CC(=O)[O-])CCN(CC(=O)[O-])CCN(CC(=O)[O-])CC3)NC(=O)CCCc3ccc(I)cc3)cccc12.[177Lu+3]
tracer uptake (U-87 MG tumour model; host not given, liver; 1 h, tumour-bearing): 2.89 %ID/g

COc1cccc(OC)c1-c1cc(C(=O)NC2(C(=O)O)C3CC4CC(C3)CC2C4)nn1-c1ccc(C(=O)N(C)CCOCCN(C)C(=O)[C@H](CCCCNC(=O)[C@H](CC(C)C)NC(=O)C2OC2C(=O)O)NC(=O)CN2CCN(CC(=O)[O-])CCN(CC(=O)[O-])CCN(CC(=O)[O-])CC2)cc1C(C)C.[177Lu+3] (mixture of isomers)
tracer uptake (HT-29 tumour model; host not given, pancreas; 4 h, tumour-bearing): 0.54 %ID/g

O=C1NC2(CC2)COc2ncc(F)cc2[C@H]2COCCN2c2ccn3ncc1c3n2
revertant colonies (Salmonella typhimurium; Ames test; TA98; 500 µg/plate, 48 h, with: without S9): 10 ± 1 revertants/plate

N#Cc1ccnc(N2C(=O)CC[C@H]2C(=O)N(c2cncc(F)c2)[C@H](C(=O)NC2CC(F)(F)C2)c2ccccc2Cl)c1
activation (NR1I2 (Homo sapiens, UniProt O75469); reporter gene, agonist; 10 µM; relative to: rifampicin): 21%

Nc1ncc(-c2cc(-c3cnn(CC(F)(F)F)c3)ncc2F)nc1C(=O)NC1CNCC(F)C1 (stereo not shown)
remaining binding (SRPK2; KINOMEscan; 1 µM; relative to: DMSO control): 66%

CCN(CC)CC#CCNc1ccnc2cc(Cl)ccc12
revertants per well (Salmonella typhimurium; mini-Ames test; TA1535; 125.0 µg/well, without S9): 1

COC1CN([C@H]2CC[C@H]([C@@]3(C)Oc4c(Cl)cc(C(=O)NCc5c(SC)cc(C)[nH]c5=O)c(C)c4O3)CC2)C1
log2 fold change (RNA-seq, measured: PRXL2A mouse homolog; mouse, HT-1376 xenograft, whole blood; dose not given; relative to: vehicle): 2.56

CNC(=O)C1CCCN(C(=O)C2CC3CCC2N3C(=O)[C@@H]2C[C@@H](O)CN2C(=O)NCc2cccc(Cl)c2F)C1 (mixture of isomers)
remaining activity (Cytochrome P450 2B6 (CYP2B6, Homo sapiens, UniProt P20813); preincubation without NADPH; human; 0.617 µM; relative to: negative control): 101% and 102%

CC(C)Cc1ccc(C(C)C(=O)N[C@@H](CCCCNC(=O)CCOCCOCCOCCOCCOCCOCCNC(=O)CN2CCN(CC(=O)[O-])CCN(CC(=O)[O-])CCN(CC(=O)[O-])CC2)C(=O)Nc2cccc3c(C(=O)NCC(=O)N4CC(F)(F)C[C@H]4C#N)ccnc23)cc1.[177Lu+3] (stereo partly shown)
tracer uptake (U-87 MG tumour model; host not given, muscle; 24 h, tumour-bearing): 0.89 %ID/g

C=CC(=O)Nc1cc(Nc2nccc(-c3cn(C)c4ccccc34)n2)c(OCC(F)(F)F)nc1N(C)CCN(C)C
contribution to substrate depletion (Cytochrome P450 2C8 (CYP2C8, Homo sapiens, UniProt P10632); substrate; 3 µM, 60 min, 2C8 isoform, liver abundance-normalized): 2.93%

CC(C)C[C@H](NC(=O)[C@H](Cc1ccc(O)cc1)NC(=O)[C@@H](CCCNC(=N)N)NC(=O)[C@@H](CO)NC(=O)[C@H](Cc1ccccc1)NC(=O)[C@H](CC1CCCCC1)NC(=O)[C@H](CC(=O)O)NC(=O)CN1CCN(CC(=O)O)CCN(CC(=O)O)CCN(CC(=O)O)CC1)C(=O)N[C@@H](Cc1c[nH]c2ccccc12)C(=O)N[C@@H](CO)C(=O)O [copper-64 labelled]
activity concentration (human, gall bladder; concentration not given, 3 h): 3880 Bq/mL and 1440 Bq/mL and 5630 Bq/mL

COc1cccc(OC)c1-c1cc(C(=O)NC2(C(=O)O)C3CC4CC(C3)CC2C4)nn1-c1ccc(C(=O)N(C)CCCN(C)C(=O)[C@H](CCCCNC(=O)[C@H](CC(C)C)NC(=O)C2OC2C(=O)O)NC(=O)CN2CCN(CC(=O)[O-])CCN(CC(=O)[O-])CCN(CC(=O)[O-])CC2)cc1C(C)C.[177Lu+3] (mixture of isomers)
tracer uptake (HT-29 tumour model; host not given, pancreas; 4 h, tumour-bearing): 0.47 %ID/g

Excerpt of the above:
COC1CN([C@H]2CC[C@H]([C@@]3(C)Oc4c(Cl)cc(C(=O)NCc5c(SC)cc(C)[nH]c5=O)c(C)c4O3)CC2)C1
log2 fold change (RNA-seq, measured: PRXL2A mouse homolog; mouse, HT-1376 xenograft, whole blood; dose not given; relative to: vehicle): 2.56

CNC(=O)C1CCCN(C(=O)C2CC3CCC2N3C(=O)[C@@H]2C[C@@H](O)CN2C(=O)NCc2cccc(Cl)c2F)C1 (mixture of isomers)
remaining activity (Cytochrome P450 2B6 (CYP2B6, Homo sapiens, UniProt P20813); preincubation without NADPH; human; 0.617 µM; relative to: negative control): 101% and 102%

CC(C)Cc1ccc(C(C)C(=O)N[C@@H](CCCCNC(=O)CCOCCOCCOCCOCCOCCOCCNC(=O)CN2CCN(CC(=O)[O-])CCN(CC(=O)[O-])CCN(CC(=O)[O-])CC2)C(=O)Nc2cccc3c(C(=O)NCC(=O)N4CC(F)(F)C[C@H]4C#N)ccnc23)cc1.[177Lu+3] (stereo partly shown)
tracer uptake (U-87 MG tumour model; host not given, muscle; 24 h, tumour-bearing): 0.89 %ID/g

C=CC(=O)Nc1cc(Nc2nccc(-c3cn(C)c4ccccc34)n2)c(OCC(F)(F)F)nc1N(C)CCN(C)C
contribution to substrate depletion (Cytochrome P450 2C8 (CYP2C8, Homo sapiens, UniProt P10632); substrate; 3 µM, 60 min, 2C8 isoform, liver abundance-normalized): 2.93%
